Published values pooled from the literature.
Compare with care: the assays were run in different laboratories. “And” joins repeats or separate records; there may be more than shown. ± gives the spread as reported. Values after ≈ are worked out from the molar mass of the structure shown.

Structure (SMILES) = CC[C@H](C)[C@H](NC(=O)[C@H](CCCCN)NC(=O)[C@H](CCCCN)NC(=O)[C@H](Cc1ccccc1)NC(=O)[C@H](Cc1ccccc1)NC(=O)[C@H](CCCCN)NC(=O)[C@H](CCCCN)NC(=O)[C@H](Cc1ccccc1)NC(=O)[C@H](CCCNC(=N)N)NC(=O)[C@@H](N)CCCCN)C(=O)N[C@@H](CCCCN)C(=O)N[C@@H](CCCCN)C(=O)N[C@@H](CO)C(=O)N[C@H](C(=O)N[C@@H](CCCCN)C(=O)N[C@@H](CCCCN)C(=O)N[C@@H](CCCNC(=N)N)C(=O)N[C@H](C(=O)N[C@@H](CCCCN)C(=O)N[C@@H](CCCCN)C(=O)N[C@@H](CC(C)C)C(=O)N[C@@H](Cc1ccccc1)C(=O)N[C@@H](CCCCN)C(=O)N[C@@H](CCCCN)C(=O)N1CCC[C@H]1C(=O)N[C@@H](CCCNC(=N)N)C(=O)N[C@H](C(=O)N[C@H](C(=O)N1CCC[C@H]1C(=O)N[C@H](C(=O)N[C@@H](CO)C(=O)N[C@H](C(=O)N1CCC[C@H]1C(=O)N[C@@H](Cc1ccccc1)C(=O)O)[C@@H](C)CC)[C@@H](C)CC)[C@@H](C)CC)C(C)C)C(C)C)C(C)C; organism = Pseudomonas aeruginosa; assay = broth microdilution; system = P4 clinical isolate; setting = 20 h; measurement = MIC; result = 4 µg/mL (≈ 0.948 µM)
Structure (SMILES) = CC[C@H](C)[C@H](NC(=O)[C@H](Cc1ccccc1)NC(=O)[C@H](CCCCN)NC(=O)[C@H](CCCCN)NC(=O)CNC(=O)[C@H](C)NC(=O)[C@H](CC(N)=O)NC(=O)[C@H](CCCCN)NC(=O)[C@H](Cc1ccccc1)NC(=O)[C@H](CC(N)=O)NC(=O)[C@H](CCC(=O)O)NC(=O)[C@H](Cc1c[nH]c2ccccc12)NC(=O)[C@H](CC(C)C)NC(=O)[C@@H](N)CO)C(=O)N[C@@H](CC(C)C)C(=O)N[C@@H](CC(N)=O)C(=O)N[C@H](C(=O)N[C@@H](CC(C)C)C(=O)N[C@@H](CC(=O)O)C(=O)N[C@@H](CCCCN)C(N)=O)[C@@H](C)CC; organism = Gram-positive bacteria; measurement = geometric mean MIC; result = 20.2 µM
Structure (SMILES) = COc1ccc(C2=[N+]([O-])c3ccccc3N3CCCN=C23)cc1; organism = Clostridioides difficile; assay = microbial growth; measurement = MIC90; result = 8 µg/mL
Structure (SMILES) = CCN1CCN(Cc2ccc(CNc3nc(N(C)C)nc(N(C)C)c3/N=N/c3ccc(Cl)cc3)cc2)CC1; organism = Ostrinia furnacalis; assay = leaf dipping; setting = 500 mg/L, 96 h; measurement = mortality; result = 100%
Structure (SMILES) = C[C@@H](O)[C@H](NC(=O)[C@@H](N)CCCNC(=N)N)C(=O)N[C@@H](CS)C(=O)N[C@@H](CCC(=O)O)C(=O)N[C@@H](CO)C(=O)N[C@@H](CCC(N)=O)C(=O)N[C@@H](CO)C(=O)N[C@@H](Cc1c[nH]cn1)C(=O)N[C@@H](CCCCN)C(=O)N[C@@H](Cc1ccccc1)C(=O)N[C@@H](CCCCN)C(=O)NCC(=O)N1CCC[C@H]1C(=O)N[C@@H](CS)C(=O)O; organism = Botrytis cinerea; assay = grey mould lesion size; system = detached rose petals; setting = 48 h post-inoculation; measurement = lowest effective concentration; result = > 12 µM
Structure (SMILES) = O=S(=O)(c1ccc(-c2ccc3ncnc(Nc4ccc(OCc5cccc(F)c5)c(Cl)c4)c3c2)cc1)N1CCCCC1; organism = Trypanosoma cruzi; assay = intracellular amastigote growth; system = NIH 3T3, Tulahuen, β-galactosidase-expressing; setting = 10 µM, 96 h; measurement = inhibition; result = 1%
Structure (SMILES) = CC(O)CN(CC(C)O)CC(C)O.O=C(O)C(Cl)Cl (centres unmarked); organism = Solanum nigrum; assay = herbicidal activity; setting = 15 mg/mL, 21 days, pre-emergence greenhouse; measurement = inhibition; result = 0%
Structure (SMILES) = CCOC(=O)C1(Cc2cc(F)c(F)c(F)c2)Oc2cc(F)ccc2N(Cc2cc(F)c(F)c(F)c2)C1=O (centres unmarked); organism = Setaria viridis; assay = fresh weight, greenhouse postemergence; setting = postemergence, 150 g ai/ha, 21 days; measurement = inhibition; result = 39.2 ± 2.46%
Structure (SMILES) = Cc1cc(C(=O)Nc2nc3cccc(C)c3n2[C@H]2CCCCN(C(=O)/C=C/CN(C)C)C2)ccn1; organism = Trypanosoma brucei brucei; system = 2T1 CLK1 overexpressing; setting = 2.5 µM, DMSO pretreated; how to read = reference: maximum; measurement = survival; result = 42% and 41.5% and 34.8% and 47.8%
Structure (SMILES) = CN(C)c1nc(NCc2ccc(-c3ccccc3)cc2)c(/N=N/c2ccc(Cl)cc2)c(N(C)C)n1; organism = Ostrinia furnacalis; assay = leaf dipping; setting = 200 mg/L, 96 h; measurement = mortality; result = 63.3 ± 5.8%
Structure (SMILES) = CC[C@H](C)[C@@H]1NC(=O)[C@H](CO)NC(=O)[C@H](CCCCN)NC(=O)[C@@H]2CSSC[C@@H](C(=O)N[C@@H](Cc3ccc(O)cc3)C(N)=O)NC(=O)[C@H](CCCCN)NC(=O)[C@@H]3CSSC[C@H](NC(=O)[C@H](CCCNC(=N)N)NC(=O)[C@H](CC(C)C)NC(=O)[C@H](CC(=O)O)NC(=O)[C@H](CC(=O)O)NC(=O)[C@H](CCC(=O)O)NC(=O)[C@H](CC(N)=O)NC(=O)[C@H](Cc4c[nH]c5ccccc45)NC(=O)[C@@H]4CCCN4C(=O)CNC(=O)[C@H](CC(N)=O)NC(=O)[C@@H](NC(=O)CNC(=O)[C@H](Cc4ccccc4)NC(=O)CN)CSSC[C@H](NC(=O)[C@H](Cc4ccc(O)cc4)NC(=O)CNC(=O)CNC(=O)[C@H](CCCCN)NC(=O)[C@H](Cc4ccc(O)cc4)NC(=O)CNC(=O)[C@H](CCCCN)NC1=O)C(=O)N[C@@H](C)C(=O)N[C@@H](CCCCN)C(=O)NCC(=O)NCC(=O)N[C@@H](Cc1ccccc1)C(=O)N[C@@H](C(C)C)C(=O)N3)C(=O)N[C@@H](Cc1c[nH]cn1)C(=O)N[C@@H](CC(N)=O)C(=O)N[C@@H](Cc1c[nH]cn1)C(=O)N2; organism = Streptococcus pneumoniae; system = BS-444; setting = 24 h, 37 °C, 99.9% killing; measurement = MBC; result = 0.5 µM (≈ 2.21 µg/mL)
Structure (SMILES) = FC(F)(F)c1cccc(CNc2nc(NC3CCN(Cc4ccccc4)CC3)c3nc[nH]c3n2)c1; organism = Cryptococcus neoformans; assay = RNA-seq, refers to: PIK1 (CNAG_07744); setting = 48 µg/mL, 3 h; how to read = reference: untreated; measurement = mRNA fold change; result = 1.48
Structure (SMILES) = CC(C)[C@@H]1NC(=O)[C@@H](Cc2ccccc2)NC(=O)[C@@H](C(C)C)NC(=O)[C@@H](C)NC(=O)[C@H](CO)NC(=O)[C@@H](Cc2c(-c3ccc(-c4ccc5ccccc5c4)cc3)[nH]c3ccccc23)NC(=O)[C@@H](CO)NC1=O; organism = Mycobacterium marinum; measurement = MIC90; result = > 100 µM
Structure (SMILES) = COC(=O)C1=CO[C@@H](C)[C@@H]2Cn3ccc4c5ccccc5nc-4c3C[C@H]12; organism = Plasmodium falciparum; assay = growth, [3H]-hypoxanthine uptake; system = FCR3; setting = 72 h; measurement = IC50; result = 231 ± 79 nM
Structure (SMILES) = CCOC(=O)/C=C/[C@H](C[C@@H]1CCNC1=O)NC(=O)[C@@H](CC(=O)[C@@H](NC(=O)c1cc(C)on1)C(C)C)Cc1ccc(F)cc1; organism = Rhinovirus A; assay = viral replication, high-content imaging; system = HeLa-CDHR3 C529Y, RV-A16; setting = 3 dpi; measurement = IC50; result = 4 nM
Structure (SMILES) = CC(C)C[C@@H]1NC(=O)C(C)(C)NC(=O)[C@@H]2CCCN2C(=O)[C@H](C(C)C)NC(=O)[C@H](Cc2ccccc2)NC(=O)CSCCNC(=O)[C@H](Cc2ccccc2)N(C)C(=O)[C@H](CC(C)C)NC(=O)[C@H](Cc2cccc3ccccc23)NC1=O; organism = HIV-1; assay = viral replication; system = MT4; how to read = reference: cell EC50 over protease IC50; measurement = EC50/IC50 ratio; result = 205
Structure (SMILES) = COc1ccc(C2=[N+]([O-])c3ccccc3N3CCN=C23)cc1; organism = Clostridioides difficile; assay = microbial growth; measurement = MIC90; result = 0.5 µg/mL
Structure (SMILES) = CC(C)[C@H]1NC(=O)[C@H](Cc2ccccc2)NC(=O)[C@@H](C(C)C)NC(=O)[C@@H](C)NC(=O)[C@H](CO)NC(=O)[C@@H](Cc2c(-c3cccc(-c4ccccc4)c3)[nH]c3ccccc23)NC(=O)[C@@H](CO)NC1=O; organism = Mycobacterium marinum; measurement = MIC90; result = > 100 µM
Structure (SMILES) = NCCO.O=C(O)C(Cl)Cl; organism = Chenopodium album; assay = herbicidal activity; setting = 15 mg/mL, 21 days, post-emergence greenhouse; measurement = inhibition; result = 0%
Structure (SMILES) = CCOC(=O)C1(Cc2cccc(C)c2)Oc2cc(F)ccc2N(Cc2cccc(C)c2)C1=O (centres unmarked); organism = Setaria viridis; assay = fresh weight, greenhouse postemergence; setting = postemergence, 150 g ai/ha, 21 days; measurement = inhibition; result = 37.4 ± 1.07%
